# Published values of several laboratories.
# Numbered parts are unrelated; each lists some results of a single study.

# Sample 1
# Target: Interferon regulatory factor 7, full length, phosphomimetic (IRF7, Homo sapiens, UniProt Q92985, residues 1-503, S471D/S472D/S475D/S476D/S477D/S483D/S484D/S487D)
# UniProt Q92985, sequence (whole entry, unmodified, looked up): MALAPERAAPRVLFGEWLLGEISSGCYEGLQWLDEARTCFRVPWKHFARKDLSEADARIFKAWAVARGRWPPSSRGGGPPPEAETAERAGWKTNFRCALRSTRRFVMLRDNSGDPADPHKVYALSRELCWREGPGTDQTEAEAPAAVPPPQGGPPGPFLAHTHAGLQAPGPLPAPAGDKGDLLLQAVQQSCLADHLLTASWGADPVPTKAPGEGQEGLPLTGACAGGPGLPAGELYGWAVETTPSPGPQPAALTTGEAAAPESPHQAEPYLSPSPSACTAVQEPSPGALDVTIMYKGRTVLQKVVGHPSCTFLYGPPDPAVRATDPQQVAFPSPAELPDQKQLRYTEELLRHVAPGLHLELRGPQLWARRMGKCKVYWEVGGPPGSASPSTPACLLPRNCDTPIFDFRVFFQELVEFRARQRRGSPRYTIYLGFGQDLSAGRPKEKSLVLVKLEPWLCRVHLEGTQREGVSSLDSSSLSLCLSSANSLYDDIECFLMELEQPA
# Technique: protein-binding microarray
# Molecule type: double-stranded DNA, one strand shown
# Matrix: in vitro
# Concentration: 2200 nM top
# Notes: 60-bp whole probe
# With: salmon DNA 0.4 mg/ml
# Relative to: random background probes
# Reading: higher = stronger binding
# Shared flanks, not repeated: GCCTAGCAC … GTCTTGATTCGCTTGACGCTGCTG
Oligonucleotide,fitted relative affinity [z-score]
GACGGCTTCGACTATCGGGACGTGCTA,-0.38
TTAGGACTGCTTCTACTTTAGTGCTAG,0.228
TTAGCTTTCGGGACTGGATTAGTGCTA,3.34
TCAGGCTTCATGTTGCTCACTGTGCTA,0.76
TCATGTCTGTAGCTCATACTGTGCTAG,0.929
GACGGTATCCCTTTCCTGACGTGCTAG,1.7
TCAAGGCCAGGGTTTCTGTTGTGCTAG,-0.0593
TTAGGTCTCCTTTTCCTTGAGTGCTAG,1.33
GACGGTCGCGGTCTCGGGACGTGCTAG,-0.556
TTAGGTATACTTTTCCTTTAGTGCTAG,2.06
TTTCATTTTTTTTCATCATTGTGCTAG,6.86
GACGGTCTGGACTTTCGGGACGTGCTA,2.09
TTTGGTTTCCTTATCCTTTAGTGCTAG,3.61
GACGGTATCGACTAGCGGGACGTGCTA,0.0536
TTAGATCTCAGTTTGGATTAGTGCTAG,0.462
GACGGTATCGACTAACGGGACGTGCTA,-0.449
TTAGGTTTCCTACTGCTTTTGTGCTAG,1.39
TTAGGTATCGGGCTTCGGTTAGTGCTA,0.139
TTAGATTTCAGTATCGATTTGTGCTAG,1.95

# Sample 2
# Target: RNA binding protein fox-1 homolog 2, RRM domain, GST-SBP tag (RBFOX2, Homo sapiens, UniProt O43251-10, residues 100-194)
# Technique: RNA Bind-n-Seq
# Molecule type: RNA
# Matrix: in vitro
# Concentration: 365 nM
# Notes: natural RNA segment, single round, ends assumed
# Relative to: no-protein control
# Reading: higher = stronger binding
# Residues (chain): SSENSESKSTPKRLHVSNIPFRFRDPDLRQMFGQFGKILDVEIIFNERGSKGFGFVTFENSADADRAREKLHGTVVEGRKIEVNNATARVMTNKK
Oligonucleotide,RBNS enrichment (R)
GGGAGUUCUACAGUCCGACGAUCUUGUUUUCAAAAAAACAUUUGUCAGUAAUUUAACAUCACUACAAAAAGAAGAGUUUGUGACUAUUCUCAUCUCUGUUUUGGACGUUUACUAGACUUUGAUUUCCUUAAUAUGGAAUUCUCGGGUGCCAA,0.273
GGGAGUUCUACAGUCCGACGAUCGCCAGAAAGGGGCAUGAGGGCUCUUGCGAGACUGAAGUGCUAUCUUCUCUGGACUAGAGAGAAGAGGGAGAGGACUGGAAGGGAUCACCAAAUCUCAAAGCAAUGAGAAGUGGAAUUCUCGGGUGCCAA,0.71
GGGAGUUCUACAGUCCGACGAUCAAGCUAGCCUUGAAUAAUUCUUCUCUCGUCUUCCUGAAACACUAUUAUGCUUGUUGUACCUUUAAAGUAUGCCUUAUGUACAUUCCUUUCUCCUUUUCCUGCCUCCUCCCUGGAAUUCUCGGGUGCCAA,1.6
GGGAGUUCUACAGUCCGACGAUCAGAGACCCUGAAAGAGGAGGGAGGACCCGCCUCCUUGUCUGCACAACUGCAUGCACUUCUCUCCCCAUCGCUCCACAACCUGAAACCGAGAAGGAGUUGCUGACCAGUGCUGGAAUUCUCGGGUGCCAA,3.89
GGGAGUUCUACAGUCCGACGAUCAGGAAGGGCGGGUGGUGUGGACAGUGUGUCAGGAGUGGUGUCACACGUGUCACACUGUUUGGAGGGGGAAGGGCAUUGCCAGCCACUGUCUGCCGAGUCGUCUGUGUAAAUGGAAUUCUCGGGUGCCAA,0.775
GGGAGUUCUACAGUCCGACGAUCAGACCACACCUGGAAGAGUUUCUGGGCUGGCUUUAAGUCCUGUUUGAAAAAGCAACCCAGUCAGCUGACUUCCUCGUGCAAUGUGUUAAACUGUGAACUCUGCCCAUGUGUGGAAUUCUCGGGUGCCAA,1.65
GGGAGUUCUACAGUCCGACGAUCUUUUCUCCAUGGAGCAAGGUGCAGUGCUAGAAUAUGGUGGUUGAUUCCCAAACAGAGCAGUUAACUUUACUCUUGGUUCUGAGUCUCCAAAUAAUAAUAGCCGACGUUUAUGGAAUUCUCGGGUGCCAA,0.547
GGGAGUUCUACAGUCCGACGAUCAAAACCUUUGUUUCCUGUGGGGGGAGGACUGAACAUGUGGUCUUAACAGCCUUUUGUACAGAUAUCUACAAAUCAAACGAUGUCUCUAUCCAGUGCUUGCCCUCGGAGUGUGGAAUUCUCGGGUGCCAA,0.39

# Sample 3
# Target: Sal-like protein 4, full length isoform B (SALL4, Homo sapiens, UniProt Q9UJQ4-2, residues 1-616)
# Technique: universal PBM
# Molecule type: double-stranded DNA, one strand shown
# Matrix: in vitro
# Concentration: not given
# Notes: 8-mer, flanks averaged, mean of replicates
# Reading: higher = stronger binding
# Construct (chain): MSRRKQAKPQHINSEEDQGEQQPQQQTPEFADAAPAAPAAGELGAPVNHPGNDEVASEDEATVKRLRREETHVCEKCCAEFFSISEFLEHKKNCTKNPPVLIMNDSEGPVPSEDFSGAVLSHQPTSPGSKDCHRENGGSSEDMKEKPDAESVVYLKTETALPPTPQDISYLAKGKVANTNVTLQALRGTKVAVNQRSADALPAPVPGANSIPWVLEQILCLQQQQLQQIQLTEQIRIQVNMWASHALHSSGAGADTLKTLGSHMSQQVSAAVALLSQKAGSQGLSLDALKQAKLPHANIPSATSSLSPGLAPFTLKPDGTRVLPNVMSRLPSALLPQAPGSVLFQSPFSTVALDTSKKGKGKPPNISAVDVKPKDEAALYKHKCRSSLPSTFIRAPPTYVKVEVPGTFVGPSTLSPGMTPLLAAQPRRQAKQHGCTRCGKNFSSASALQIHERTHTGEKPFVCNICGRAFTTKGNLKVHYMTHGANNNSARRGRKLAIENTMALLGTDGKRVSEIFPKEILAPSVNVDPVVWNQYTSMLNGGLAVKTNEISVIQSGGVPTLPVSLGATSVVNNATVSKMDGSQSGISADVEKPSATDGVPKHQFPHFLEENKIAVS
Oligonucleotide,E-score
AGGTCCGG,-0.313
CTGGCGTA,-0.16
CACACGCC,-0.024
CTTAGCCC,-0.262
AGCACGGC,-0.233
TCCGGACA,-0.177
CACCCCTG,-0.257
CAGGGAGA,-0.311
ATGTGCCC,0.0777
AAGCCCGC,-0.232
CAGACTAG,-0.228
GCAACATA,0.217
CCAACATC,-0.226
CCGCACCA,-0.236
ACCAGAAA,0.166
TATGAGAA,0.295
CCTTACAC,0.0503
GGCCGATA,-0.0342
CTAAGCAG,-0.235

# Sample 4
# Target: Histone acetyltransferase KAT6A, winged helix 2, GST fusion (KAT6A, Homo sapiens, UniProt Q92794, residues 85-181)
# Technique: protein binding microarray
# Molecule type: double-stranded DNA, one strand shown
# Matrix: in vitro
# Concentration: not given
# Notes: 8-mer, flanks averaged, mean of 2 arrays, mostly near background
# Relative to: not given
# Reading: higher = stronger binding
# Target sequence (chain): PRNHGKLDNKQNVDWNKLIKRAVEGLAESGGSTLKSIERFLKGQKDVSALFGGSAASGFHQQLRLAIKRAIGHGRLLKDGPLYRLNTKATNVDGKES
Oligonucleotide,E-score
ATACTGCG,-0.143
AGAATAAC,-0.193
GCGGAGTA,0.033
TATTTTAA,-0.015
ATTTGGAA,0.0306
ACAGAGGT,-0.0697
ACCTAATA,-0.109
AGCGAGCC,0.0742
AGTCTAGG,-0.19
GTCGATTA,-0.0174
CCGATCGG,0.226
CAAGGAGG,-0.0342
GCCGTTGA,0.0809
GGAGTTCA,0.0168
ATTGGAGA,-0.0174
CTAGTCTA,-0.212
ATGACCGG,-0.138
CCTCGCTA,-0.154
CACCACTC,0.117
CTGTCGAA,-0.0696
AAGACGAC,-0.0622
AGGGCGTC,0.176
AATTGACC,0.0638
CGTGCAGC,-0.0293
CGCGAACG,0.0621

# For quick reference, copied from above (sample 1):
Oligonucleotide,fitted relative affinity [z-score]
TCATGTCTGTAGCTCATACTGTGCTAG,0.929
GACGGCTTCGACTATCGGGACGTGCTA,-0.38
TCAAGGCCAGGGTTTCTGTTGTGCTAG,-0.0593
TTAGGACTGCTTCTACTTTAGTGCTAG,0.228
TTAGGTCTCCTTTTCCTTGAGTGCTAG,1.33
